Measured values collected from several papers.
Compare with care: the assays were run in different laboratories. ± marks the error that the study gave.

Compound = C=CC(=O)N1[C@H](c2ccc3c(c2)OCO3)c2[nH]c3ccccc3c2C[C@@H]1C(=O)N1CCN(C)CC1; tested on = human cyclin E1 N112C-3xFLAG:CDK2; assay = co-IP with TMT proteomics, measured: TK1; setting = concentration not given, P04183; scale = baseline: wild type DMSO; quantity = relative co-enrichment; result = 80%
Compound = O=C(N/N=C/c1ccc2c(ccc[n+]2Cc2ccccc2)c1)c1cncc(C(=O)N/N=C/c2ccc3c(ccc[n+]3Cc3ccccc3)c2)n1; tested on = hp2 hairpin duplex DNA; assay = FRET melting; setting = 1 µM, together with: ds26 10 µM; quantity = ΔTm; result = 2.2 ± 0.1 °C
Compound = COC1CN([C@H]2CC[C@H]([C@@]3(C)Oc4c(Cl)cc(C(=O)NCc5c(SC)cc(C)[nH]c5=O)c(C)c4O3)CC2)C1; assay = RNA-seq, measured: ACP5; system = human, whole blood; setting = dose not given, 24 h; scale = baseline: pretreatment baseline; quantity = log2 fold change; result = 4.7
Compound = O=C(N/N=C/c1ccc2c(ccc[n+]2Cc2ccccc2)c1)c1ccc2ccc3ccc(C(=O)N/N=C/c4ccc5c(ccc[n+]5Cc5ccccc5)c4)nc3c2n1; tested on = hp2 hairpin duplex DNA; assay = FRET melting; setting = 1 µM; quantity = ΔTm; result = 1.9 ± 1.5 °C
Compound = Cc1ncsc1-c1ccc(C(C)NC(=O)C2CC(O)CN2C(=O)C(NC(=O)CCCCCCCCCCN2CCCC(Nc3ncc(Cl)c(Nc4ccccc4S(=O)(=O)C(C)C)n3)C2)C(C)(C)C)cc1 (stereo not drawn); tested on = 22Rv1; assay = RNA-seq, measured: ZMYM4 mRNA; setting = concentration not given; scale = baseline: DMSO; quantity = log2 fold change; result = -1.06
Compound = COc1nc(Nc2nc(O)c3ccccc3n2)nc2ccc(C)cc12; tested on = Mus musculus; assay = gene silencing, high-content imaging; system = LDR reporter GFP cells; setting = retest, mean of two runs; quantity = EC50; result = 12.6 µM
Compound = CNS(=O)(=O)Nc1nccc(Cc2c(C)c3ccc(Oc4ncccc4F)cc3oc2=O)c1F; tested on = Farage; assay = cell viability, CellTiter-Glo; setting = 7 days; quantity = IC50; result = > 1000 nM
Compound = Nc1ncc(-c2cc(-c3cnn(CC(F)(F)F)c3)ncc2F)nc1C(=O)NC1CNCC(F)C1 (stereo not drawn); tested on = MINK; assay = KINOMEscan competition binding; setting = 1 µM; scale = baseline: DMSO control; quantity = remaining binding; result = 77%
Compound = C[n+]1cc(/C=N/NC(=O)N/N=C/c2cc3ccccc3[n+](C)c2)cc2ccccc21; tested on = MYC parallel G4 DNA; assay = FRET melting; setting = 1 µM, DNA 0.2 µM, together with: duplex DNA competitor 10 µM; quantity = ΔTm; result = 4.3 ± 0.2 °C
Compound = CN1CCCNC(=O)c2cccc(c2)C(=O)NCCCN(C)CCCNc2cccc3c2C(=O)c2cccc(c2C3=O)NCCC1; tested on = SAS; assay = RNA-Seq, measured: MERTK mRNA; setting = 1 µM, 6 h; scale = baseline: untreated cells; quantity = log2 fold change; result = 6.71
Compound = C[n+]1ccc(/C=N/NC(=O)c2cccc(C(=O)N/N=C/c3cc[n+](C)cc3)c2)cc1; tested on = MYC parallel G4 DNA; assay = FRET melting; setting = 1 µM, DNA 0.2 µM, together with: duplex DNA competitor 10 µM; quantity = ΔTm; result = 2.2 ± 0.2 °C
Compound = C=CC(=O)Nc1cccc(Cn2ncc3cnc(Nc4cnn(CCOC)c4)nc32)c1; tested on = human FLT3-autoinhibited; assay = KINOMEscan; setting = 100 nM; scale = baseline: control; quantity = binding; result = 75%

Excerpt of the above:
Compound = CN1CCCNC(=O)c2cccc(c2)C(=O)NCCCN(C)CCCNc2cccc3c2C(=O)c2cccc(c2C3=O)NCCC1; tested on = SAS; assay = RNA-Seq, measured: MERTK mRNA; setting = 1 µM, 6 h; scale = baseline: untreated cells; quantity = log2 fold change; result = 6.71
